Published values collected from several papers.
Parts stem from different laboratories: compare values within a part only. Changes are numbered by the printed parent chain.

Study 1
Target: TAR DNA-binding protein 43, full length, His tag (TARDBP, Homo sapiens, UniProt Q13148, residues 1-414)
Method: RNA Bind-n-Seq
Molecule type: RNA
Matrix: in vitro
Concentration: 20 nM
Setting: 6-mer, flanks averaged, single round
With: 150 mM LiCl
Relative to: input library
Direction: higher = stronger binding
`UGUCCA` — result for “6-mer enrichment (R)”: 0.929.
Under “6-mer enrichment (R)”, `CAGGCC` is recorded as 0.926.
For `UGGUAG`, “6-mer enrichment (R)” read 1.18.
For `CACUUA`, “6-mer enrichment (R)” read 0.88.
For `AUUCGC`, “6-mer enrichment (R)” read 0.868.
`AGUUGG`: “6-mer enrichment (R)” 1.07.
For `GAGCAC`, “6-mer enrichment (R)” read 0.901.
Under “6-mer enrichment (R)”, `CCAGCC` is recorded as 0.972.
`CGGCCA`: “6-mer enrichment (R)” 0.902.
`GUCGAG` — result for “6-mer enrichment (R)”: 1.04.
For `AUGAAU`, “6-mer enrichment (R)” read 1.07.
For `GGCCUC`, “6-mer enrichment (R)” read 0.939.
`UCUGGU` — result for “6-mer enrichment (R)”: 0.989.
`GAUACA`: “6-mer enrichment (R)” 0.821.
For `CGUGUU`, “6-mer enrichment (R)” read 1.21.
`CCUUGG`: “6-mer enrichment (R)” 1.11.
Under “6-mer enrichment (R)”, `GCUCUG` is recorded as 0.874.
For `GGCGAU`, “6-mer enrichment (R)” read 0.991.
Under “6-mer enrichment (R)”, `AACUGG` is recorded as 0.895.
`CUAACU`: “6-mer enrichment (R)” 0.857.
`GGGAAA`: “6-mer enrichment (R)” 1.01.
`ACACGA` — result for “6-mer enrichment (R)”: 0.799.
For `GUGUUU`, “6-mer enrichment (R)” read 1.83.
`UCUGAC` — result for “6-mer enrichment (R)”: 0.838.

Study 2
Target: RNA binding protein fox-1 homolog 2, RRM domain, GST-SBP tag (RBFOX2, Homo sapiens, UniProt O43251-10, residues 100-194)
Method: RNA Bind-n-Seq
Molecule type: RNA
Matrix: in vitro
Concentration: 365 nM
Setting: natural RNA segment, single round, ends assumed
Relative to: no-protein control
Direction: higher = stronger binding
Shared flanks, not repeated: GGGAGUUCUACAGUCCGACGAUC … UGGAAUUCUCGGGUGCCAA
Target sequence (chain): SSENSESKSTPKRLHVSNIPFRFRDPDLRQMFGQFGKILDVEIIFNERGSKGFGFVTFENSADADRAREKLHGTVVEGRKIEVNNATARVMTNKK
`CUAACGGGACUGGUUUUCAAAGCAGUUAUCUUGGGAAACUGUUUAUUCCAGCGAUGUGACUUUUUUCAGAAUAUUUCUUGGAAUCAUAUUCAGAGUCUGGGGCUGUGUGU` — result for “RBNS enrichment (R)”: 0.407.
`GAACCCUGGCUGAUAUUGAAGUCAUCAUUGUUGGAUGGUUUAUUCUGUUUUGUUGUUAAUGCUCAGACAGUAUUGUCUGAGAAAUUACACCUGAGUGCAUUUAAGUAUUU`: “RBNS enrichment (R)” 0.462.
`CGCCACCUCUACCUGUUCCCAGGACACCCUCCCACAUGUGUCACCUCCCCAUCAUCCACGCCAAGUGGAAGCCACUGGACCACAGGAGGUGUGAUAGAGCCUUUGAUCUU`: “RBNS enrichment (R)” 0.67.
`GGAAGCCGUGGGGUCCCUCAGGCCUGGGCGGUGCAGCUUCCAGAGAGCGAGCGCCCUUUAGCGGCCUGCCACCACAGCACGCGGCCUCCUGAUCCGGAAGCACGCAGCAU` — result for “RBNS enrichment (R)”: 21.9.
`UCUUCUGUGUGUAGCCUGUAGCUGGUCAGCCUGCUUCUGCCCCCUCCUGAUUUCCCUAAGGAGCCUGGGAUGAUGUUGGUCAAAUGACCUAGAAACAAGGAUUCUACCUG`: “RBNS enrichment (R)” 0.334.
For `AGCAAUAGGAGUCAAGUUACUGGUGCCACAGAUCUGGAGGUAUGAUAGGUCAGGGGCUAGGUGUUGAACUUAGUUAAUGGAAGACUGAGAGCAGAACAGGUUUGUCAUCU`, “RBNS enrichment (R)” read 2.18.
`GGAACAAGGGUCACUGGACCCUUGGGGAAAGUGGGAAAAGAGCUAUGUGCAAGGGCAGAUGCUCCAAAGACAGAGAAAUGGUGGCACUCACAGUUUCAUGACAGAAUAAA` — result for “RBNS enrichment (R)”: 1.83.
`AGGCAUGUAGAAUAAGCAUGGAGUCAUAUUGAGGAGGACUCACUUCUUGAAGAUAUGCUUGUUGCUUUACAACAUAUGUAAGCUAUUCUUUAGCAUAAAUGCAUUCAUUC` — result for “RBNS enrichment (R)”: 8.47.
`UCAGGUUUAUAGCUGUUGUGUUUAAAGAUUGAAAAAAGUGGAAAACAUCUUUGUACAUUUAAGUCUGUAUUAUAAUAAGCAAAAAGAUUGUGUGUAUGUAUGUUUAAUAU`: “RBNS enrichment (R)” 0.722.
For `CCAGGACCACAGCUCUGUUCCUUCGGCCUCUGGUCCUCUCUGGUCCCCUCCUGGGUUUCUUACGUAGUUGAUUUUUCCUCUUUAGUCUCCCCCGACCUGCGCCCAGCCCC`, “RBNS enrichment (R)” read 0.416.
Under “RBNS enrichment (R)”, `CACUUAUGAUUUUGUAGACCAUGUGAAAUUUAAUAAGAUACCUUUUUUUUCCUUUCUUUGUGUGUAGUGCAGCAACAGUUUGGUCUGCAUUUGUUAGAAGUUUAACUCCU` is recorded as 1.04.
For `AAACAAGAGAAAAGAAAAAUCAAUUAGAUCUAAACAGUUAUUUCUGUUUCCUAUUUAAUACAGCUGAAGUCAAAAUAUGUAAGAACACAUUUUAAAUACUCUACUUACAG`, “RBNS enrichment (R)” read 0.51.

Study 3
Target: Histone acetyltransferase KAT6A, winged helix 1, GST fusion (KAT6A, Homo sapiens, UniProt Q92794, residues 1-85)
Method: protein binding microarray
Molecule type: double-stranded DNA, one strand shown
Matrix: in vitro
Concentration: not given
Setting: 8-mer, flanks averaged, mean of 2 arrays, mostly near background
Relative to: not given
Direction: higher = stronger binding
Target sequence (chain): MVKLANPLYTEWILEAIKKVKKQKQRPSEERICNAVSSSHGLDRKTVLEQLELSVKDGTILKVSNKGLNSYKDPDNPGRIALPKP
`CATAGGAC` has an E-score of -0.0653.
`CGGGGTCC` has an E-score of 0.3.
`CACGCTGG` has an E-score of -0.0232.
With `AGTGGGGG` the E-score was -0.183.
For `ACCGCTCT`, the E-score was 0.183.
With `ACGTTCTC` the E-score was -0.0542.
`ATCATTGG` has an E-score of -0.197.
The E-score of `CTCGCGAA` is reported as -0.0332.
`CTCGAAAG` gave an E-score of -0.0548.
With `GATCGGGC` the E-score was 0.195.
`CTTGATGA` has an E-score of -0.154.
`CATGAATA` gave an E-score of -0.15.
With `AACAGCAG` the E-score was -0.0803.
`CTTTCCCC` has an E-score of -0.154.
For `GACTGAAA`, the E-score was -0.171.
`AAGGAGGG` gave an E-score of -0.134.
`AACCGATG` gave an E-score of -0.0352.
With `GTCTTAAC` the E-score was -0.131.
For `AAGGGGAG`, the E-score was -0.0253.

Study 4
Target: RING finger protein unkempt homolog, zinc fingers 1-6, GST-SBP tag (UNK, Homo sapiens, UniProt Q9C0B0, residues 30-357)
Method: RNA Bind-n-Seq
Molecule type: RNA
Matrix: in vitro
Concentration: not given
Setting: RNA with constant flanks, human and mouse sites, ends assumed
Relative to: input RNA pool
Direction: higher = stronger binding
Shared flanks, not repeated: GGGAGUUCUACAGUCCGACGAUC … CAACAGAGGAUUGAGCAUCA
Target sequence (chain): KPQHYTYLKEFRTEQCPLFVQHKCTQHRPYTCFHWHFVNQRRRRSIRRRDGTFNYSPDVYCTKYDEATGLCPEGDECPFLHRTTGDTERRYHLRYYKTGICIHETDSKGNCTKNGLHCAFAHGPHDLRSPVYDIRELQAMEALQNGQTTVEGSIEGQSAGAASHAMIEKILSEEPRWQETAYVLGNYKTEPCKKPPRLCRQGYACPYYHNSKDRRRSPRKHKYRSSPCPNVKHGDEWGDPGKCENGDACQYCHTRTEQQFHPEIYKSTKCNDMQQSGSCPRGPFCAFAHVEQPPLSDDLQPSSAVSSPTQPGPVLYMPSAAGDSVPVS
For `AAGAUAACUUCAAGGCAGGAAAAAAGGGUAUUUAAUGCUCUGUCAAGCACAUCAGCAAUCAUAGAUUACCUUACAGACCAUUAUGGCAUUUGACUAGACUUCCCAAAUAAUUUUAAUAUA`, the bound/input enrichment was 1.78 ratio.
`CAAGUAAAAGAAGAACAGCUUAAAAAUUCUACAGAGGAAAUAAUGCCAUCAGACAAACAGUUAAUUAAAAUGGAAAAGAAGGAAGAAGAAGAAAACGGAGAAAGACCUAGAAAGAAAAAG` has a bound/input enrichment of 0.849 ratio.
`GAUCAUCCAGGCUUAAAGGCUAAAGAAAAUGAUGAAAAUUGUGGUCCUACUACCACUGUUUUUGUUGGCAACAUUUCCGAGAAAGCUUCAGACAUGCUUAUAAGACAACUCUUAGCUAAA` gave a bound/input enrichment of 0.254 ratio.
`UUAUCUAAUUAGAAUGAAAAUGAAAGGAGCAAAGAAGGCAUUACUGUAUAUAAUGGAUAUACACUGGUGGUUCUAGAAUUAUGGUAUAUGGUACAUGGUUGAAGUGCCAUUGUUUCAGUU` has a bound/input enrichment of 2.23 ratio.
The bound/input enrichment of `AGCAUAUCCAGCAGAGAUGUUCAGCCUGUCGCCUAUGAGGAGCCCAAACACUGGUGUUCGAUUGUCUACUAUGAAUUAAACAAUCGUGUUGGGGAAGCUUUUCAUGCAUCUUCUACUAGU` is reported as 0.154 ratio.
`UUCCUGCAUUGCUGAGUCUUUGAAGUUCUACCACAAAGGGAUCGCCUCCCUAACGGCCGCCAGCACACCGCUGAAUCCUUUGAGCUUUCAGUGUGAGUUUGUAAAGCUCCGGAUCGAUCU` has a bound/input enrichment of 0.128 ratio.
With `CUAUAAAGGCAGCGCCCCGGAGAGCUCUUGCGCGUCUUGUUCUUGCCUGGUGUCGGUGGUUAGUUUCUGCGACUUGUGUUGGGACUGCUGAUAGGAAGAUGUCUUCAGGAAAUGCUAAAA` the bound/input enrichment was 0.384 ratio.
`UUGGUGGUGCAUCUAGCCGAGGUGAAAACUCCUAUGGCCUGGAAACUGUGUGCAAGGAUAUCAGGAACUUGCGAUUUGCUCAUAAACCGGAGGGGCGAACAAGAAGAUCCAUAUUUGAGA` has a bound/input enrichment of 0.195 ratio.
The bound/input enrichment of `UGGCAAGACUACCAUCCUGUACAAACUGAAGUUGGGGGAGAUUGUCACCACCAUCCCCACUAUAGGUGAGUCCAGGACAAGGAGCGGGAAGCAGGAAUGUCGCUUUGAGCCUUGUCGGGG` is reported as 0.0944 ratio.
`GCUUUUCAAGCCAAGGAUGUGGAAGGAUCUACUUCUCCUCAAAUAGGAGAUAAGGUUGAAUUUAGUAUUAGUGACAAACAGAGGCCUGGACAGCAGAUUGCAACUUGCGUGAGACUUUUA` has a bound/input enrichment of 4.84 ratio.
`AACGUUCUGGAUGCCAACCUCUGCUUAAAGGGAGAAGACUUGGAUUCUCAGGUCGGGGUGAUUGACUUCUCUCUCUGUCUGAAGGACGCACAGGAUCUUGACAGCGGCAGAGAGCAUGAA` has a bound/input enrichment of 0.286 ratio.

Study 5
Target: CCNA1, cyclin fold, Cln2 fusion (human)
Method: yeast growth competition, sequencing
Matrix: yeast
Setting: weak parent motif
Relative to: not given
Direction: higher = stronger binding
Parent: WEE1 docking peptide (human); CTLRQKLIFSPCS; partner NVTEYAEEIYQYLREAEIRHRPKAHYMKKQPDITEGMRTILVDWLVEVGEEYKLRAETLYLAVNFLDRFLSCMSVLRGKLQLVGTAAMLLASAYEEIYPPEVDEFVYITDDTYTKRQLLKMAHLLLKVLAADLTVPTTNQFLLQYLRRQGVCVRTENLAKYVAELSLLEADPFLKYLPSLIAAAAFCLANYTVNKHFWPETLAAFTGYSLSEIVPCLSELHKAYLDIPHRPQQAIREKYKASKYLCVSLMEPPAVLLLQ
`CTARQKLIFSPCS [L3A]`: “normalised enrichment score” -0.215.
`CTLAQKLIFSPCS [R4A]`: “normalised enrichment score” -0.365.
Under “normalised enrichment score”, `CTLRQKLIFSPCA [S13A]` is recorded as -0.243.
Under “normalised enrichment score”, `CTLRQKLIFSACS [P11A]` is recorded as -0.0304.
For `CTLRQKLIASPCS [F9A]`, “normalised enrichment score” read -0.256.
Under “normalised enrichment score”, `CTLRQALIFSPCS [K6A]` is recorded as -0.0818.
`ATLRQKLIFSPCS [C1A]` — result for “normalised enrichment score”: 0.0165.

Some of these lines once more (study 3):
`CATAGGAC` has an E-score of -0.0653.
`CGGGGTCC` has an E-score of 0.3.
`CACGCTGG` has an E-score of -0.0232.
With `AGTGGGGG` the E-score was -0.183.
For `ACCGCTCT`, the E-score was 0.183.
With `ACGTTCTC` the E-score was -0.0542.
`ATCATTGG` has an E-score of -0.197.
The E-score of `CTCGCGAA` is reported as -0.0332.
